Published values of several laboratories.
Parts stem from different laboratories: compare values within a part only. Several values in a cell are separate wells, animals, samples, runs or records.

Series 1
SMILES: NC(N)=NC(=O)c1nc(Cl)c(N2CCCCCC2)nc1N
Action: agonist
Tested at: 10 µM
Baseline: untreated
Endpoint: fold over basal
Free fatty acid receptor 4 (FFAR4, Homo sapiens, UniProt Q5NUL3); β-arrestin recruitment, PRESTO-Tango: 2.23
Alpha-1B adrenergic receptor (ADRA1B, Homo sapiens, UniProt P35368); β-arrestin recruitment, PRESTO-Tango: 0.8
Prolactin-releasing peptide receptor (PRLHR, Homo sapiens, UniProt P49683); β-arrestin recruitment, PRESTO-Tango: 0.85
Neuropeptide Y receptor type 5 (NPY5R, Homo sapiens, UniProt Q15761); PRESTO-Tango arrestin recruitment: 11.9
Adenosine receptor A1 (ADORA1, Homo sapiens, UniProt P30542); β-arrestin recruitment, PRESTO-Tango: 0.98
Probable G-protein coupled receptor 141 (GPR141, Homo sapiens, UniProt Q7Z602); β-arrestin recruitment, PRESTO-Tango: 1.21
Adhesion G protein-coupled receptor D2 (ADGRD2, Homo sapiens, UniProt Q7Z7M1); β-arrestin recruitment, PRESTO-Tango: 0.81
ADGRG2 (Homo sapiens, UniProt Q8IZP9); β-arrestin recruitment, PRESTO-Tango: 0.99

Series 2
Species: mouse
Matrix: microsomes or S9
Tested at: 2 µM
Time: 0.5 h
Endpoint: remaining compound
Cc1cc(NC(=O)C(O)c2cc(Cl)cc(Cl)c2)c[nH]c1=O (centres unmarked): 90.9%
CCN1CCCC1CNC(=O)C1CCCN(c2ncnc3[nH]cnc23)C1 (centres unmarked): 73.4%
CCCOc1ccccc1-c1nc2nn[nH]c2c(=O)[nH]1: 59.5%
COc1ccc(C)cc1NC(=O)c1cc2ccc3cccnc3c2[nH]1: 0.0592%
COc1ccc(-n2ccc3cc(NC(=O)N4CCCCC4)ccc32)cc1Cl: 71.3%
CC(C)c1nc2cc(N3CC(=O)C(c4nc(-c5ccccc5)cs4)=C3N)ccc2[nH]1: 81.7%
CCOc1nc(Nc2nc(-c3ccccc3)cs2)nc(OCC)n1: 87.7%

Series 3
Structure (SMILES): C[C@@H]1CN(c2cc(-c3nn(C)c4ccc(OC5(C)CC5)cc34)ncn2)C[C@H](C)O1
Read-out: cell-free assay
Method: competition with immobilised ligand
Tested at: 1 µM
Endpoint: remaining binding
Cyclin-dependent kinase-like 1 (CDKL1, Homo sapiens, UniProt Q00532): 89%
Serine/threonine-protein kinase LATS2 (LATS2, Homo sapiens, UniProt Q9NRM7): 58%
Serine/threonine-protein kinase 38 (STK38, Homo sapiens, UniProt Q15208): 57%
1-phosphatidylinositol 3-phosphate 5-kinase (PIKFYVE, Homo sapiens, UniProt Q9Y2I7): 78%
Phosphatidylinositol 4,5-bisphosphate 3-kinase catalytic subunit alpha isoform (PIK3CA, Homo sapiens, UniProt P42336, H1047Y): 100%
Serine/threonine-protein kinase N1 (PKN1, Homo sapiens, UniProt Q16512): 100%
Casein kinase I isoform alpha (CSNK1A1, Homo sapiens, UniProt P48729): 100%
Uncharacterized serine/threonine-protein kinase SBK3 (SBK3, Homo sapiens, UniProt P0C264): 100%
Tyrosine-protein kinase ABL1, phosphorylated (ABL1, Homo sapiens, UniProt P00519, M351T): 91%
Tyrosine-protein kinase ABL1, non-phosphorylated (ABL1, Homo sapiens, UniProt P00519): 85%
Homeodomain-interacting protein kinase 2 (HIPK2, Homo sapiens, UniProt Q9H2X6): 74%
Serine/threonine-protein kinase DCLK3 (DCLK3, Homo sapiens, UniProt Q9C098): 77%
Serine/threonine-protein kinase BRSK1 (BRSK1, Homo sapiens, UniProt Q8TDC3): 97%
Receptor-interacting serine/threonine-protein kinase 1 (RIPK1, Homo sapiens, UniProt Q13546): 98%
Mast/stem cell growth factor receptor Kit (KIT, Homo sapiens, UniProt P10721, V559D/V654A): 100%
cGMP-dependent protein kinase 1 (PRKG1, Homo sapiens, UniProt Q13976): 100%
Hepatocyte growth factor receptor (MET, Homo sapiens, UniProt P08581): 100%
Ribosomal protein S6 kinase alpha-3, N-terminal kinase domain (RPS6KA3, Homo sapiens, UniProt P51812): 82%
Dual specificity protein kinase CLK1 (CLK1, Homo sapiens, UniProt P49759): 86%
Mast/stem cell growth factor receptor Kit (KIT, Homo sapiens, UniProt P10721, T670I/V559D): 100%
Fibroblast growth factor receptor 2 (FGFR2, Homo sapiens, UniProt P21802): 100%
Non-receptor tyrosine-protein kinase TNK1 (TNK1, Homo sapiens, UniProt Q13470): 95%
Phosphatidylinositol 4,5-bisphosphate 3-kinase catalytic subunit delta isoform (PIK3CD, Homo sapiens, UniProt O00329): 97%
Epidermal growth factor receptor (EGFR, Homo sapiens, UniProt P00533, L861Q): 83%
Mast/stem cell growth factor receptor Kit (KIT, Homo sapiens, UniProt P10721): 100%

Series 4
Cell line: mouse MPNST tumor cells
Method: high-content immunofluorescence imaging
Measured: nuclear SOX9
Tested at: 10 µM
Time: 12 h
Notes: mean of 2 replicates
Baseline: DMSO control
Direction: higher = more nuclear SOX9
Endpoint: nuclear SOX9 intensity
Nc1[nH]nc2nnc(-c3c(-c4ccccc4)nn4ccccc34)cc12: 88.9 % of DMSO
O=[N+]([O-])c1ccc(CN2CCOCCOCCN(Cc3ccc([N+](=O)[O-])cc3)CCOCC2)cc1: 114 % of DMSO
O=C1[C@H](CC[C@H](O)c2ccc(F)cc2)[C@@H](c2ccc(O)cc2)N1c1ccc(F)cc1: 105 % of DMSO and 108 % of DMSO
CCCC(CCC)C(=O)NCc1ccc2c(cnn2-c2ccccc2OC)c1: 100 % of DMSO
COc1cc(C(=O)NC2CC3CCCC(C2)N3CC(=O)Nc2ccccc2Cl)cc(OC)c1OC (centres unmarked): 155 % of DMSO
COc1ccc(OC)c(C(O)CNC(=O)CN)c1 (centres unmarked): 104 % of DMSO
CCOc1ccccc1OCCN[C@H](C)Cc1ccc(OC)c(S(N)(=O)=O)c1: 105 % of DMSO
O=C(O)c1cccnc1Nc1cccc(C(F)(F)F)c1: 111 % of DMSO
Nc1nc(NCCc2ccc(O)cc2)nc2nc(-c3ccco3)nn12: 98.6 % of DMSO
C[C@@H](O)[C@H]1C(=O)N2C(C(=O)O)=C(S[C@@H]3CN[C@H](C(=O)N(C)C)C3)[C@H](C)[C@H]12: 91.5 % of DMSO

A few entries again (series 3):
Tyrosine-protein kinase ABL1, non-phosphorylated (ABL1, Homo sapiens, UniProt P00519): 85%
Homeodomain-interacting protein kinase 2 (HIPK2, Homo sapiens, UniProt Q9H2X6): 74%
Serine/threonine-protein kinase DCLK3 (DCLK3, Homo sapiens, UniProt Q9C098): 77%
